Published values pooled from the literature.
Protocols differ between the studies behind these lines. ≈ marks a conversion by molar mass, not a printed value.
UniProt P28335, sequence (whole entry, looked up): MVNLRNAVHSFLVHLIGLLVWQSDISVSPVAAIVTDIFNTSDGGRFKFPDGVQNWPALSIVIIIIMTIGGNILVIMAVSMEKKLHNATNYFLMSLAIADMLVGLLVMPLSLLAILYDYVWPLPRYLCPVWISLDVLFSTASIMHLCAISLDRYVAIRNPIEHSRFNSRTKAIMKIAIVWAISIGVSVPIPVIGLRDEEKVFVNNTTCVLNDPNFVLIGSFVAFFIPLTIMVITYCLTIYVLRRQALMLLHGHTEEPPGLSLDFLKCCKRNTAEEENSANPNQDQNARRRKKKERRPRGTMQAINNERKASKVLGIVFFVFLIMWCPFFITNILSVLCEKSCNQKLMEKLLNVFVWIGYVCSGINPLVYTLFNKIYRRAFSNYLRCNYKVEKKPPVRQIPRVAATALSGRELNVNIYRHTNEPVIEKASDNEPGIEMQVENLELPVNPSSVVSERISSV
UniProt O14965, sequence (whole entry, looked up): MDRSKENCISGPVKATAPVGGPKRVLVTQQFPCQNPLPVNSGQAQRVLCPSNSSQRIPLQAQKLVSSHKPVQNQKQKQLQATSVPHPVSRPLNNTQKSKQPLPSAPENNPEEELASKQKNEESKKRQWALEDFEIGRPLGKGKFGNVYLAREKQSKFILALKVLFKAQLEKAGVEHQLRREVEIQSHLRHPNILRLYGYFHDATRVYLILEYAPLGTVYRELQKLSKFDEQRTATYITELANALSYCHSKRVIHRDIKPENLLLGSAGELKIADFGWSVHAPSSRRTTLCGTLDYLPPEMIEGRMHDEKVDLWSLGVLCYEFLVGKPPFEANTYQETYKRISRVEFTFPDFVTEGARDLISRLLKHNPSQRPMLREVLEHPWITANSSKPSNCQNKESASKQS
UniProt P34968, sequence (whole entry, looked up): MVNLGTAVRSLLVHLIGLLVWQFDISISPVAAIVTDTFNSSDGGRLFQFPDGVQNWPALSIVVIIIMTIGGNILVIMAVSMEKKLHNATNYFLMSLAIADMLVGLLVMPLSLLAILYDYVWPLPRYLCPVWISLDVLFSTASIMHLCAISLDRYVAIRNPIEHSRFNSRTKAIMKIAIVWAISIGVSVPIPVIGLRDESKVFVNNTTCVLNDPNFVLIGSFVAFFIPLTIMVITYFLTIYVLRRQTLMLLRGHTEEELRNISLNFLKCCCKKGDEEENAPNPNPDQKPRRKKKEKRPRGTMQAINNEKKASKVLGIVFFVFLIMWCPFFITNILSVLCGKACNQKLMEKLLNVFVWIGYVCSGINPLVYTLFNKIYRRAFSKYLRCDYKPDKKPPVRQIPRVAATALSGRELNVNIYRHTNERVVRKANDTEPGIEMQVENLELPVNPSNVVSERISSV

Structure (SMILES)	target or system	test	test system	conditions	endpoint	value
C#Cc1cccc(O)c1C=NNC(=O)c1ccc(COC)cc1	Candida albicans	microbial growth		pH 7.4	MIC80	8 µg/mL (≈ 25.9 µM)
N.N.[Cl][Pt][Cl]	CA46	cell growth or viability, ATP luminescence		72 h	IC50	1530 nM
C#Cc1cc(O)c(C=NNC(=O)c2ccc(Br)c(Br)c2)cc1C#C	Candida albicans	microbial growth		pH 7.4	MIC80	0.5 µg/mL (≈ 1.12 µM)
CCOC(=O)c1c(NC(=O)CNC(C)C)sc2c1CCCCC2			male mouse, brain	intraperitoneal, 5 mg/kg, 1 h	concentration	177 ng/g
COC(=O)c1cc(-c2cccc(NC(=O)Nc3cccc(F)c3)c2)on1	Mycolicibacterium fortuitum	microbial growth, broth dilution	ATCC6841	48 h	MIC	> 64 µg/mL
CC(=O)N1CCN(c2ccc(OCC3COC(Cn4ccnc4)(c4ccc(Cl)cc4Cl)O3)cc2)CC1 (stereo not shown)	Candida tropicalis	microbial killing, broth dilution	CGMCC2	48 h	MFC	16 µM (≈ 8.5 µg/mL)
Cc1noc(-c2cccs2)c1C(=O)NCCc1cccc(Cl)c1	Plasmodium falciparum	parasite growth, SYBR Green	3D7	72 h	EC50	1330 nM
Nc1ncnc2c([C@@H]3N[C@H](CO)[C@@H](O)[C@H]3O)c[nH]c12	Dengue virus	viral replication	Vero 76, DENV2	94.7 µM	inhibition	100%
Cc1ccc(NNC(=O)c2nnc(CC34CC5CC(CC(C5)C3)C4)o2)cc1	Rhizoctonia solani	microbial growth			EC50	> 50 µg/mL
COC(=O)c1cc(-c2cccc(NC(=O)Nc3ccc(C)cc3)c2)on1	Mycobacteroides chelonae	microbial growth, broth dilution	ATCC35752	48 h	MIC	> 64 µg/mL
Nc1c(C(=O)N2CC(F)(F)C2)sc2nc(-c3ccccc3)ccc12	Mycobacterium tuberculosis	microbial growth	H37RV		IC50	> 100000 nM
COc1cc(CCNCc2ccccc2O)c(OC)cc1C#N	Htr2c (Mus musculus, UniProt P34968)	G protein activation, agonist, BRET			EC50	28.8 nM
OC(Cn1cncn1)(Cn1cncn1)c1ccc(F)cc1F	Candida albicans	microbial killing, broth dilution	58288	48 h	MFC	> 64 µM
COc1ncccc1-c1cnn2ccc(N3CCN(C(=O)OC(C)C)CC3)nc12	Aurora kinase A (AURKA, Homo sapiens, UniProt O14965)	binding, competition with immobilised ligand		1 µM	remaining binding	70%
C[C@@H]1[C@H](O)[C@@H](C)/C=C/C=C/C=C/C=C/C=C/C=C/C=C/[C@H](O[C@@H]2O[C@H](C)[C@@H](O)[C@H](N)[C@@H]2O)C[C@@H]2O[C@](O)(C[C@@H](O)C[C@@H](O)[C@H](O)CC[C@@H](O)C[C@@H](O)CC(=O)O[C@H]1C)C[C@H](O)[C@H]2C(=O)O	Candida albicans	microbial killing, broth dilution	SP3931	48 h	MFC	0.5 µM (≈ 0.462 µg/mL)
COc1cc(CCNC(C)c2ccccc2O)c(OC)cc1C#N (stereo not shown)	HTR2C (Homo sapiens, UniProt P28335)	G protein activation, agonist, BRET			EC50	160 nM
Cc1csc2[nH]c(=O)n(O)c(=O)c12	Human betaherpesvirus 5	viral replication, inhibitor		10 µM, 7 days	inhibition	5.2%
Cc1nn(C)cc1-c1nc2c(N3CCN(Cc4ccc(Cl)cc4)CC3)c(Cl)cnc2[nH]1	EGFR (Homo sapiens, UniProt P00533, del746-750)	binding, competition with immobilised ligand		1 µM	remaining binding	94%
CC(Oc1cccc(Cl)c1)C(=O)N1CCc2ccccc21 (stereo not shown)	Plasmodium falciparum	parasite growth, SYBR Green	3D7	72 h	EC50	746 nM
Nc1ncc(-c2nc(N3CCOCC3)nc(N3CCOCC3)n2)c(C(F)F)n1	EGFR (Homo sapiens, UniProt P00533, T790M)	cell-free assay, competition with immobilised ligand		10 µM	remaining binding	51%
O=C(CN1CCN(C(=O)c2ccco2)CC1)Nc1ccccc1Br	Plasmodium falciparum	parasite growth, SYBR Green	3D7	72 h	EC50	327 nM
C#Cc1ccc(C(=O)NN=Cc2cccc(C#C)c2O)cc1	Candida albicans	microbial growth		pH 7.4	MIC80	4 µg/mL (≈ 13.9 µM)
O=C(NNc1ccccc1)c1nnc(CC23CC4CC(CC(C4)C2)C3)o1	Rhizoctonia solani	microbial growth		50 µg/mL	inhibition	49.7%
COC(=O)c1cc(-c2ccc(NC(=O)Nc3ccc(Cl)c(Cl)c3)cc2)on1	Pseudomonas aeruginosa	microbial growth, broth dilution	ATCC27853		MIC	> 64 µg/mL
CCCn1c(O)nnc1SCC(=O)Nc1cc(Cl)ccc1Cl	Plasmodium falciparum	parasite growth, SYBR Green	3D7	72 h	EC50	1560 nM
CC(C)(C#Cc1ccc(-c2ccc(Cl)c3c(NS(C)(=O)=O)nn(CC(F)(F)F)c23)c([C@@H](CC2CCCCC2)NC(=O)Cn2nc(C(F)(F)F)c3c2C(F)(F)[C@H]2C[C@@H]32)n1)S(C)(=O)=O	Human immunodeficiency virus 1	viral replication, inhibitor			EC50	70 nM
CCOC(=O)c1cc(-c2cccc(NC(=O)Nc3ccc(Cl)c(Cl)c3)c2)on1	Pseudomonas aeruginosa	microbial growth, broth dilution	ATCC27853		MIC	> 64 µg/mL
C#Cc1ccc(O)c(C=NNC(=O)c2ccc(Br)cc2)c1	Candida albicans	microbial growth		pH 7.4	MIC80	0.5 µg/mL (≈ 1.46 µM)

Structure (SMILES)	target or system	test	test system	conditions	endpoint	value
CC(C)(C)C(O)(CCc1ccc(Cl)cc1)Cn1cncn1 (stereo not shown)	Botrytis cinerea	microbial growth		200 µg/mL	inhibition	100%
C[N+]1=C2C=C(N/C=C/c3ccc(O)cc3)C(=O)c3[nH]cc(c32)CC1	Plasmodium falciparum	parasite growth, SYBR Green	W2	blood stage	IC50	966 nM
Cc1noc(-c2cccs2)c1C(=O)NC(C)c1cccc2ccccc12 (stereo not shown)	Plasmodium falciparum	parasite growth, SYBR Green	3D7	72 h	EC50	329 nM
O[C@@H](CN1CCN(C(c2ccccc2)c2ccccc2)CC1)c1cc(Cl)cc2c1-c1ccc(Cl)cc1C2	Plasmodium falciparum	parasite growth, SYBR Green	W2	48 h, drug-resistant strain, blood stage	IC50	57.9 nM
COC(=O)c1cc(-c2cccc(NC(=O)Nc3ccccc3C)c2)on1	Mycolicibacterium fortuitum	microbial growth, broth dilution	ATCC6841	48 h	MIC	> 64 µg/mL
Cn1cc(C2=C(c3cn(C4CCN(Cc5ccccn5)CC4)c4ccccc34)C(=O)NC2=O)c2ccccc21	Betacoronavirus 1	viral replication	MRC5, OC43		IC50	17600 nM
O[C@H](CNCCCC(F)(F)F)c1cc(Cl)cc2c1-c1ccc(Cl)cc1C2	Plasmodium falciparum	parasite growth, SYBR Green	W2	48 h, drug-resistant strain, blood stage	IC50	4.1 nM
CC(CCCN(CCCl)CCCl)Nc1ccnc2cc(Cl)ccc12 (stereo not shown)	Dengue virus	viral replication, inhibitor	BHK-21, DENV2	50 µM, 24 h, replicon	inhibition	99.6%
O=C(NNc1cc(F)ccc1F)c1nnc(CC23CC4CC(CC(C4)C2)C3)o1	Rhizoctonia solani	microbial growth			EC50	6.96 µg/mL
OC(c1cc(C(F)(F)F)nc2c(C(F)(F)F)cccc12)C1CCCCN1 (stereo not shown)	Plasmodium falciparum	parasite growth, SYBR Green	3D7	72 h	EC50	20 nM
CC[C@H](C)[C@H](NC(=O)[C@H](Cc1ccccc1)NC(=O)[C@H](CCC(=O)O)NC(=O)[C@H](CCCNC(=N)N)NC(=O)[C@H](C)NC(=O)[C@H](C)NC(=O)[C@H](CCC(N)=O)NC(=O)[C@H](CCC(=O)O)NC(=O)[C@H](CCC(=O)O)NC(=O)[C@H](CC(C)C)NC(=O)[C@H](Cc1ccc(O)cc1)NC(=O)[C@H](CO)NC(=O)[C@H](CO)NC(=O)[C@@H](NC(=O)[C@H](CC(=O)O)NC(=O)[C@H](CO)NC(=O)[C@@H](NC(=O)[C@H](Cc1ccccc1)NC(=O)[C@@H](NC(=O)CNC(=O)[C@H](CCC(=O)O)NC(=O)[C@H](C)NC(=O)CCc1c[nH]cn1)[C@@H](C)O)[C@@H](C)O)C(C)C)C(=O)N[C@@H](C)C(=O)N[C@@H](Cc1c[nH]c2ccccc12)C(=O)N[C@@H](CC(C)C)C(=O)N[C@H](C(=O)N[C@@H](CCCNC(=N)N)C(=O)NCC(=O)N[C@@H](CCCNC(=N)N)C(=O)N[C@@H](CCCCNC(=O)COCCOCCNC(=O)COCCOCCNC(=O)CC[C@H](NC(=O)CCCCCCCCCCCCCCCCC(=O)O)C(=O)O)C(=O)NCC(=O)NCC(=O)N[C@@H](CO)C(=O)N[C@@H](CCCCNc1c(NCCCCCN(O)C(=O)CCC(=O)NCCCCCN(O)C(=O)CCC(=O)NCCCCCN(O)C(C)=O)c(=O)c1=O)C(=O)O)C(C)C			rat, plasma	intravenous, 20 nmol/kg	AUC	2.56 µM·h
c1nc2nc3c(c(Nc4ccc5c(c4)CCC5)n2n1)CCC3	Plasmodium falciparum	parasite growth, SYBR Green	3D7	72 h	EC50	7080 nM
C#Cc1n[nH]c2c(-c3cn([C@@H](C)c4ccccn4)c(=O)[nH]c3=O)cc(F)cc12	EGFR (Homo sapiens, UniProt P00533)	enzyme activity, inhibitor		0.1 µM	inhibition	2.4%
COc1ccccc1NC(=O)CSc1nc2cccnc2n1-c1ccccc1OC	Plasmodium falciparum	parasite growth, SYBR Green	3D7	72 h	EC50	287 nM
C#Cc1cccc(C=NNC(=O)c2ccc(Br)cc2)c1O	Candida albicans	microbial growth		pH 7.4	MIC80	0.25 µg/mL (≈ 0.728 µM)
COC(=O)c1cc(-c2cccc(NC(=S)Nc3ccc(F)cc3)c2)on1	Mycolicibacterium fortuitum	microbial growth, broth dilution	ATCC6841	48 h	MIC	> 64 µg/mL
O=C(NNc1ccc(F)c(F)c1)c1nnc(CC23CC4CC(CC(C4)C2)C3)o1	Rhizoctonia solani	microbial growth			EC50	> 12.5 µg/mL
COC(=O)c1cc(-c2cccc(NC(=O)Nc3ccc(F)cc3)c2)on1	Mycobacteroides chelonae	microbial growth, broth dilution	ATCC35752	48 h	MIC	> 64 µg/mL
[2H]c1c([2H])c([C@]2([2H])CCCN2C(=O)C(C)(C)Oc2ccc3cn[nH]c3c2)c([2H])c([2H])c1C([2H])([2H])[2H]	MAP3K5 (Homo sapiens, UniProt Q99683)	binding, competition with immobilised ligand		1 µM	remaining binding	85%
CO/C=C(/C(=O)OC)c1ccccc1Oc1cc(Oc2ccccc2C#N)ncn1	Rhizoctonia solani	microbial growth			EC50	> 50 µg/mL
C#Cc1ccc(C=NNC(=O)c2ccc(COC(C)C)cc2)c(O)c1	Cryptococcus neoformans	microbial growth, broth dilution		pH 7.4	MIC80	0.015 µg/mL (≈ 0.0446 µM)
O=C(NNc1ccc(Cl)cc1)c1nnc(C23CC4CC(CC(C4)C2)C3)o1	Rhizoctonia solani	microbial growth		50 µg/mL	inhibition	68.7%
C#Cc1ccc(C=NNC(=O)c2ccc(Br)cc2)c(O)c1	Candida albicans	microbial growth		pH 7.4	MIC80	4 µg/mL (≈ 11.7 µM)
O=C(NNc1ccc(Cl)c(Cl)c1)c1nnc(C23CC4CC(CC(C4)C2)C3)o1	Rhizoctonia solani	microbial growth			EC50	> 12.5 µg/mL
COC(=O)c1cc(-c2ccc(OC)c(NC(=O)Nc3ccc(Cl)c(Cl)c3)c2)on1	Mycolicibacterium fortuitum	microbial growth, broth dilution	ATCC6841	48 h	MIC	> 64 µg/mL
C#Cc1ccc(O)c(C=NNC(=O)c2ccc(COC)cc2)c1	Cryptococcus neoformans	microbial growth, broth dilution		pH 7.4	MIC80	0.015 µg/mL (≈ 0.0486 µM)
O=C(NNc1cccc(Cl)c1)c1nnc(CC23CC4CC(CC(C4)C2)C3)o1	Rhizoctonia solani	microbial growth			EC50	> 50 µg/mL

For quick reference, copied from above:
Structure (SMILES)	target or system	test	test system	conditions	endpoint	value
C#Cc1cc(O)c(C=NNC(=O)c2ccc(Br)c(Br)c2)cc1C#C	Candida albicans	microbial growth		pH 7.4	MIC80	0.5 µg/mL (≈ 1.12 µM)
Nc1ncc(-c2nc(N3CCOCC3)nc(N3CCOCC3)n2)c(C(F)F)n1	EGFR (Homo sapiens, UniProt P00533, T790M)	cell-free assay, competition with immobilised ligand		10 µM	remaining binding	51%
CC[C@H](C)[C@H](NC(=O)[C@H](Cc1ccccc1)NC(=O)[C@H](CCC(=O)O)NC(=O)[C@H](CCCNC(=N)N)NC(=O)[C@H](C)NC(=O)[C@H](C)NC(=O)[C@H](CCC(N)=O)NC(=O)[C@H](CCC(=O)O)NC(=O)[C@H](CCC(=O)O)NC(=O)[C@H](CC(C)C)NC(=O)[C@H](Cc1ccc(O)cc1)NC(=O)[C@H](CO)NC(=O)[C@H](CO)NC(=O)[C@@H](NC(=O)[C@H](CC(=O)O)NC(=O)[C@H](CO)NC(=O)[C@@H](NC(=O)[C@H](Cc1ccccc1)NC(=O)[C@@H](NC(=O)CNC(=O)[C@H](CCC(=O)O)NC(=O)[C@H](C)NC(=O)CCc1c[nH]cn1)[C@@H](C)O)[C@@H](C)O)C(C)C)C(=O)N[C@@H](C)C(=O)N[C@@H](Cc1c[nH]c2ccccc12)C(=O)N[C@@H](CC(C)C)C(=O)N[C@H](C(=O)N[C@@H](CCCNC(=N)N)C(=O)NCC(=O)N[C@@H](CCCNC(=N)N)C(=O)N[C@@H](CCCCNC(=O)COCCOCCNC(=O)COCCOCCNC(=O)CC[C@H](NC(=O)CCCCCCCCCCCCCCCCC(=O)O)C(=O)O)C(=O)NCC(=O)NCC(=O)N[C@@H](CO)C(=O)N[C@@H](CCCCNc1c(NCCCCCN(O)C(=O)CCC(=O)NCCCCCN(O)C(=O)CCC(=O)NCCCCCN(O)C(C)=O)c(=O)c1=O)C(=O)O)C(C)C			rat, plasma	intravenous, 20 nmol/kg	AUC	2.56 µM·h
OC(c1cc(C(F)(F)F)nc2c(C(F)(F)F)cccc12)C1CCCCN1 (stereo not shown)	Plasmodium falciparum	parasite growth, SYBR Green	3D7	72 h	EC50	20 nM
O=C(NNc1ccc(Cl)cc1)c1nnc(C23CC4CC(CC(C4)C2)C3)o1	Rhizoctonia solani	microbial growth		50 µg/mL	inhibition	68.7%
Cc1ccc(NNC(=O)c2nnc(CC34CC5CC(CC(C5)C3)C4)o2)cc1	Rhizoctonia solani	microbial growth			EC50	> 50 µg/mL
CCOC(=O)c1c(NC(=O)CNC(C)C)sc2c1CCCCC2			male mouse, brain	intraperitoneal, 5 mg/kg, 1 h	concentration	177 ng/g
